Experimental data gathered from unrelated publications.
Protocols differ between the studies behind these lines. Several values in a cell are separate wells, animals, samples, runs or records. ± gives the spread as reported.

SMILES | tested on | assay | test system | conditions | how to read | measurement | result
O=C(CC(=O)Nc1ccc2c(/C=C/c3ccccn3)n[nH]c2c1)Nc1ccc(Cl)c(C(F)(F)F)c1 | Ba/F3 TEL-VEGFR1 | cell growth, CCK-8 | – | – | – | GI50 | 500 nM
Cc1cc(C)nc(SCC(=O)Nc2ncc(Cc3cccc(OCc4cn(Cc5ccc(C#N)cc5)nn4)c3)s2)n1 | PC-3M-luc | colony formation, colony forming | – | 10 µM | – | inhibition | 30.4 ± 13.2%
CCN(C(=O)c1cc(F)ccc1Oc1nncnc1N1CCC2(C1)CN([C@H](CCCN(C)CCOC)C(C)C)C2)C(C)C | JAR | cell growth or viability | – | 72 h | – | GI50 | > 10000 nM
Cc1cc(Cl)cc(-c2ccnc3cc(CN4C(=O)C5C(C4=O)C5(C)C)sc23)c1C[C@@H]1CNCCO1 (some centres unmarked) | CHP-212 parental | annexin V/PI flow cytometry | – | 0.3 µM, 48 h | – | viable cells | 54.4% and 61.6% and 67.2%
CN1CCCNC(=O)c2cccc(c2)C(=O)NCCCN(C)CCCNc2cccc3c2C(=O)c2cccc(c2C3=O)NCCC1 | SAS | RNA-Seq, measured: XRN1 mRNA | – | 1 µM, 6 h | relative to: untreated cells | log2 fold change | -0.896
Cc1ccncc1.[Cl-].[Cl-].[Ru+2].c1cc(-c2ccc3cccnc3n2)nc(-c2ccc3cccnc3n2)c1.c1ccc2cc3nc4c5cccnc5c5ncccc5c4nc3cc2c1 | A-375 | resazurin | – | with: light 523 nm, 100 J/cm2 | relative to: dark EC50 over light EC50 | phototoxicity index | 42
COc1cc(N2CCN(C(=O)C3CCCN3)CC2)ccc1Nc1ncc(Cl)c(Nc2ccccc2P(C)(C)=O)n1 (centres unmarked) | NCI-H3122 | CCK-8 | – | 10 nM, 48 h | – | viability | 69%
[177Lu+3].[Cl-].[Cl-].[Cl-] | 4T1 | flow cytometry | – | 0.4 Bq/cell, 24 h | – | live cells | 79.2%
COc1cc(/C=C/C(=O)CC(C)=O)ccc1O | A549 | PI staining flow cytometry | – | 50 µM, 48 h | – | cells in S phase | 2.46%
CC(C)(C)c1cc(-c2ccc3cccnc3n2)nc(-c2ccc3cccnc3n2)c1.[Cl-].[Cl-].[Ru+2].c1ccc2cc3nc4c5cccnc5c5ncccc5c4nc3cc2c1 | A-375 | – | – | visible light 100 J/cm2 | relative to: dark EC50 over light EC50 | phototherapeutic index | 7
CC(C)c1ccc(N(C)c2ccc3c(c2)OCC[C@H]3CNc2cnccc2C(=O)O)cc1 | MDA-MB-361 | cell viability, CellTiter-Glo | – | 7 days | – | IC50 | ≥ 10000 nM
CN(C)c1ccc(-n2cc(COC(=O)[C@]3(C)C=C(C(=O)OC(C)(C)C)C(=O)CC3)nn2)cc1 | AP-1 reporter HEK293 | AP-1 reporter gene, luciferase reporter | – | 3 µM, 6 h, with: PMA 6 ng/mL | higher = more transcription | luminescence | 4350 a.u.
CC(C)(C)n1cc(CN(Cc2cn(CC(=O)O)nn2)Cc2cn(C(C)(C)C)nn2)nn1 | OVCAR-5, HPG-incorporated | live-cell CuAAC, LC-ESI-MS/MS | cytosolic proteins | concentration not given, 10 min, suspended cells, scraper-detached | – | amount of labelled product | 1.07 pg/µg protein and 1.15 pg/µg protein and 1.06 pg/µg protein
CCN(CC)CC(=O)Nc1cccc(-n2cc(-c3ccc4ccc(-c5cn(-c6cccc(NC(=O)CN(CC)CC)c6)nn5)cc4c3)nn2)c1 | RCC4 | PCR angiogenesis array, measured: THBS1 | – | 5 x IC50, 4 h, normoxia | relative to: untreated | fold regulation | -1.23 fold
CC(=O)OC[C@H]1O[C@@H](n2cc(CSc3nc4ccccc4n3Cc3cn([C@@H]4O[C@H](COC(C)=O)[C@@H](OC(C)=O)C(OC(C)=O)[C@H]4OC(C)=O)nn3)nn2)[C@H](OC(C)=O)C(OC(C)=O)[C@@H]1OC(C)=O (stereo in doubt) | Caco-2 | MTT | – | 62.5 ppm | – | cytotoxicity | 87.8%
Cn1ncc2cc(-c3cncc(Cl)c3N3CCC4(CCNC4=O)CC3)ccc21 | LS174T | gene expression, microarray, measured: SLC6A4 mRNA | – | concentration not given, 4 h | relative to: untreated cells | log2 fold change | -1.43
COc1ccccc1-c1ccncc1C(=O)Nc1nnc(OCc2ccc(Cl)cc2)s1 | DLD-1 BRCA2 wild-type | immunofluorescence | – | 10 µM, 96 h, >5 foci per nucleus | – | γH2AX foci-positive nuclei | 24.9% and 24% and 25.2%
COc1cc(N2CCOCC2)ccc1Nc1ncc(Cl)c(Nc2ccccc2NS(C)(=O)=O)n1 | PC-9 EGFR del19/T790M/C797S | – | – | 0.03 to 3 µM, 24 h | – | BrdU-positive cells | decreased
CO[C@@H]1[C@@H](OC(N)=O)[C@@H](O)[C@H](Oc2ccc3c(O)c(NC(=O)c4ccc(O)c(CC=C(C)C)c4)c(=O)oc3c2C)OC1(C)C | DLD-1 parental | – | – | 100 µM, replicate 2 | – | colony count | 51
COC(=O)c1cc(NC2=NC(=O)C(=Cc3ccc(C)cc3)S2)ccc1OC(C)=O | MCF7 | GC-MS, measured: L-Lysine | – | 1 µM | relative to: DMSO | metabolite level | 0.52 fold change
O=C(N/N=C/c1ccc(C[n+]2ccccc2)cc1)c1cccc(C(=O)N/N=C/c2ccc(C[n+]3ccccc3)cc2)c1 | MYC parallel G4 DNA | FRET melting | – | 1 µM, DNA 0.2 µM | – | ΔTm | 2.2 ± 0.2 °C
O=C1CC[C@H](N2Cc3cc(-c4ccn5ncc(Cl)c5n4)ccc3C2=O)C(=O)N1 | MOLM-13 | protein level, TMT proteomics, measured: AAAS | – | 1 µM, 6 h | relative to: DMSO | log2 fold change | 0.0354
CCCCCCCCCCCC(=O)N[C@H](CO)C[C@@H](O)c1ccccc1 | HeLa | HPLC-MS/MS | – | 1 µM, 24 h | – | total ceramide level | 79600 pmol/sample and 74600 pmol/sample and 68900 pmol/sample
NC(=O)c1ccc(-c2ccccc2Cl)c2c3c([nH]c12)CC[C@@H](N)C3 | B16F10 | cell proliferation | – | 96 h | – | IC50 | 20.9 nM
CC(C)(C)c1cc(-c2ccc3cc4ccccc4nc3n2)nc(-c2ccc3cc4ccccc4nc3n2)c1.[Cl-].[Cl-].[Ru+2].c1ccc2cc3nc4c5cccnc5c5ncccc5c4nc3cc2c1 | A-375 | cytotoxicity, resazurin | – | dark | – | EC50 | 50000 nM
O=C(N/N=C/c1ccc2c(ccc[n+]2Cc2ccccc2)c1)c1ccc2ccc(C(=O)N/N=C/c3ccc4c(ccc[n+]4Cc4ccccc4)c3)nc2n1 | MYC parallel G4 DNA | FRET melting | – | 1 µM, DNA 0.2 µM | – | ΔTm | 13.4 ± 0.1 °C
CNS(=O)(=O)Nc1nccc(Cc2c(C)c3ccc(Oc4ncccc4F)cc3oc2=O)c1F | LS-123 | cell viability | – | 7 days | – | IC50 | 408 nM
Cc1ncsc1-c1ccc(C(C)NC(=O)C2CC(O)CN2C(=O)C(NC(=O)CCCCCCCCCCN2CCCC(Nc3ncc(Cl)c(Nc4ccccc4S(=O)(=O)C(C)C)n3)C2)C(C)(C)C)cc1 (centres unmarked) | 22Rv1 | RNA-seq, measured: ZNF646 mRNA | – | concentration not given | relative to: DMSO | log2 fold change | -2.14
Cn1c(=O)n(C2CCC(=O)NC2=O)c2ccc(C3CCN(CC(=O)Nc4cccc(CS(=O)(=O)N5CC[C@H](Nc6cccc(-c7sc(C(=O)O)c(OCC(=O)O)c7Cl)c6)CC5(C)C)c4)CC3)cc21 (some centres unmarked) | B16-F10 | HTRF, measured: phospho-STAT1 Tyr701 | – | 3.3 µM, with: IFN-γ | relative to: DMSO | fold change | 5.83 and 5.56 and 6.1 and 5.59 and 5.67
